Assay results pooled from the literature.
Compare with care: the assays were run in different laboratories. “And” joins repeats or separate records; there may be more than shown. ± marks the error that the study gave.
UniProt Q64663, sequence (whole entry, unmodified, looked up): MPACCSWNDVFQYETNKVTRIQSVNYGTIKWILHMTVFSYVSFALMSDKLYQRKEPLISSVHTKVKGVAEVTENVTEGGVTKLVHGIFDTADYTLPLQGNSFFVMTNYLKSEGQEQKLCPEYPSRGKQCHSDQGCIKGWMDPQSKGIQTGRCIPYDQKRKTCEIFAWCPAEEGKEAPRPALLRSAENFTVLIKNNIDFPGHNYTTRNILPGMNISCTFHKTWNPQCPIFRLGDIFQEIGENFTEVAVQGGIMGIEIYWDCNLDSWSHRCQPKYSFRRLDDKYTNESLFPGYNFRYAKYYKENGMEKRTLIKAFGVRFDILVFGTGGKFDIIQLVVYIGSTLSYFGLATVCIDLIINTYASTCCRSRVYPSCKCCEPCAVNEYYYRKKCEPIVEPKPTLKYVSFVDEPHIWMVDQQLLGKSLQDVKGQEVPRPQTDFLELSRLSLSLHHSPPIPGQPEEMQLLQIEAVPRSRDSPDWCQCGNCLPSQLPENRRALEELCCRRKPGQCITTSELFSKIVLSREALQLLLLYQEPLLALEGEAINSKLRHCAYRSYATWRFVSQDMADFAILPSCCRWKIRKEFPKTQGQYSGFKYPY
UniProt P48067, sequence (whole entry, looked up): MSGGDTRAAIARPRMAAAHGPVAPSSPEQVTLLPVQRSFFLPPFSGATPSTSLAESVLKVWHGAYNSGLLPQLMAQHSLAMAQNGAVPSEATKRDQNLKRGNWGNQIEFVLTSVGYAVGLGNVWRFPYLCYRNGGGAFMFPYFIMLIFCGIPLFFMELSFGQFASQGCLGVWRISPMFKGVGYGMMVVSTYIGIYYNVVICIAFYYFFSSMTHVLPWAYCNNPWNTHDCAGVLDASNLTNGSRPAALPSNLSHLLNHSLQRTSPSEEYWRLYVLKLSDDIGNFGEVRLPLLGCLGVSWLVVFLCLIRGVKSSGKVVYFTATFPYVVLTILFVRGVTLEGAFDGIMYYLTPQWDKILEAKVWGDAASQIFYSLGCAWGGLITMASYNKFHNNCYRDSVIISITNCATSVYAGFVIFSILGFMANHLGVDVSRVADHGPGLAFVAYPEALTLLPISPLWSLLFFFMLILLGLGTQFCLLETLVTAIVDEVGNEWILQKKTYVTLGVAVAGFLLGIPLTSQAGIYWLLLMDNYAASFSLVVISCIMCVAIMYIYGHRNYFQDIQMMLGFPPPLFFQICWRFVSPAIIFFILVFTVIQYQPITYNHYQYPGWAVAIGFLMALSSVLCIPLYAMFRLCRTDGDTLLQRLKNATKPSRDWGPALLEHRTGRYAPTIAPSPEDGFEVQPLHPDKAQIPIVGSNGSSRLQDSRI

epoetin alfa  mRNA level (UT7/EPO; microarray, refers to: NFKBIZ (probe 223218_s_at); 5 U/mL, 90 min, with: SCF 10 nM; baseline: vehicle): 2.4 fold
GSGAGIESNV  binding intensity (human MAGI1-2/6 PDZ construct (MBP fusion); automated holdup; peptide, purified PDZ protein; concentration not given, unit not given; baseline: biotin control resin, higher = stronger binding): -0.0665
caspofungin  potassium (adult ICU patients, mITT, serum; dose not given, EOT): 4.2 mmol/L
insulin aspart  time to late 50 % Cmax (ELISA after PEG precipitation, refers to: free insulin aspart; human, type 1 diabetes, serum; subcutaneous, dose not given, least squares mean, single dose): 157 min
PMESGICTIV  binding intensity (human MAGI1-2/6 PDZ construct (MBP fusion); automated holdup; peptide, crude extract; concentration not given, uncorrected, unit not given; baseline: biotin control resin, higher = stronger binding): -0.00443
human alpha-1-acid glycoprotein 1  co-IP enrichment (co-immunoprecipitation; human plasma; no crosslinker, unit not given, with: Band 3 peptide 1-56 bait; baseline: negative control): 0
Teicoplanin  recovery (QC solution; 2 days, 2–6 °C, high QC level): 101%
UBE2I  co-IP enrichment (co-immunoprecipitation; human RBC membrane; no crosslinker, unit not given, with: Band 3 peptide 1-56 bait; baseline: negative control): 0
GLFQWIVQA  reporter activation (Jurkat T cells expressing 1G4 TCR; NFAT-eGFP reporter, fluorescence microscopy; peptide; concentration not given, HLA-A*02:01 NY-ESO system): 0.0067%
Polymyxin B  membrane depolarisation (Staphylococcus aureus; DiSC3(5) fluorescence; concentration not given, 33 min; higher = more depolarisation): 680 a.u. and 884 a.u. and 665 a.u.
PLLEWMPRL  reporter activation (Jurkat T cells expressing 1G4 TCR; NFAT-eGFP reporter, fluorescence microscopy; peptide; concentration not given, HLA-A*02:01 NY-ESO system): 0.00746%
Peginesatide  phosphorylation level (UT7/EPO; tyrosine phosphorylation, LC-MS/MS phosphoproteomics, GluC, refers to: STAT1 tyrosine 701; 10 nM, 15 min, with: 10 U/mL EPO; baseline: vehicle): 5.2 fold
FGA (Homo sapiens, UniProt P02671)  cross-linked residues (NTMT1 (Homo sapiens, UniProt Q9BV86); cross-linking MS; with: DSSO): K157 to K47
GSGAGKESYV  binding intensity (human SCRIB PDZ3-4 tandem (MBP fusion); automated holdup; peptide, purified PDZ protein; concentration not given, unit not given; baseline: biotin control resin, higher = stronger binding): 0.552
GLAQWIPQV  reporter activation (Jurkat T cells expressing 1G4 TCR; NFAT-eGFP reporter, fluorescence microscopy; peptide; concentration not given, HLA-A*02:01 NY-ESO system): 0.0168%
ACEEQNPWARYLEWLFPTETLLLEL  mean fluorescence intensity (ex vivo fluorescence imaging; peptide, BALB/c mice, 4T1 tumour-bearing, 4T1 tumour; intravenous, 5 nmol, 24 h post-injection; higher = more uptake): 810 ± 196 a.u.
insulin degludec  terminal half-life (human; subcutaneous, 0.4 IU/kg, 1 FC level, single dose, reference formulation): 14.1 ± 2.4 h
methyl-β-cyclodextrin  glycine uptake rate (SLC6A9 (Homo sapiens, UniProt P48067); transport activity, [3H]glycine uptake; 2.5 mg/mL, 1 min, with: glycine 300 µM; higher = more transport): 53.8 a.u. and 54.1 a.u. and 44.4 a.u. and 43.7 a.u.
SLLQWISQV  reporter activation (Jurkat T cells expressing 1G4 TCR; NFAT-eGFP reporter, flow cytometry; peptide; concentration not given, HLA-A*02:01 NY-ESO system): 79.2%
ACDDQNPWRAYLDLLFPTDTLLLDLLW  mean fluorescence intensity (ex vivo fluorescence imaging; peptide, BALB/c mice, 4T1 tumour-bearing, muscle; intravenous, 5 nmol, 4 h post-injection; higher = more uptake): 1120 ± 167 a.u.
TCP-1 alpha  co-IP enrichment (co-immunoprecipitation; human RBC membrane; DMTMM crosslinker, unit not given, with: Band 3 peptide 1-56 bait; baseline: negative control): 116
FNA / CGLSGLGVA-NH2 ([18F]FNA-labelled, C-amide)  tissue uptake (ex vivo gamma counting; peptide, glioblastoma mouse model, muscle; 60 min post injection, with: 500-fold excess CooP blocking): 0.2 %ID/g
milbemycin oxime  OD600 (Saccharomyces cerevisiae; cell growth; Pdr5 deleted, Cdr1 overexpressed; 2^-6.644 µg/mL, with: fluconazole 1 µg/mL): 1 and 1.02
GLLQWVSMV  reporter activation (Jurkat T cells expressing 1G4 TCR; NFAT-eGFP reporter, fluorescence microscopy; peptide; concentration not given, HLA-A*02:01 NY-ESO system): 0.00942%
adenosylhomocysteinase  co-IP enrichment (co-immunoprecipitation; human plasma; unit not given, with: Band 3 peptide 1-56 bait; baseline: negative control): 0
MTVCNASQRQAHAQATAVSL  selectivity ratio (HCC461; phage binding; peptide; baseline: targeting over control phage): 1.9 ± 0.54
ALMHWITQV  reporter activation (Jurkat T cells expressing 1G4 TCR; NFAT-eGFP reporter, fluorescence microscopy; peptide; concentration not given, HLA-A*02:01 NY-ESO system): 0.991%
human HSC70  co-IP enrichment (co-immunoprecipitation; human RBC cytosol; DSSO crosslinker, unit not given, with: Band 3 peptide 1-56 bait; baseline: negative control): 867
ALFQWISQV  reporter activation (Jurkat T cells expressing 1G4 TCR; NFAT-eGFP reporter, flow cytometry; peptide; concentration not given, HLA-A*02:01 NY-ESO system): 63.9%
KPGKGSETVV  binding intensity (human MAGI1-2/6 PDZ construct (MBP fusion); automated holdup; peptide, crude extract; concentration not given, corrected by standard peak, unit not given; baseline: biotin control resin, higher = stronger binding): 0.58
triosephosphate isomerase  co-IP enrichment (co-immunoprecipitation; human RBC membrane; DSSO crosslinker, unit not given, with: Band 3 peptide 1-56 bait; baseline: negative control): 0.497
BzATP  normalized current (P2X purinoceptor 7 (P2rx7, Rattus norvegicus, UniProt Q64663, Q143A/R125A); ion current, agonist, two-electrode voltage clamp; Xenopus laevis oocytes; 11 µM; baseline: highest concentration response): 0.349 and 0.266 and 0.308
GGWVEKETYY  binding intensity (human MAGI1-2/6 PDZ construct (MBP fusion); automated holdup; peptide, purified PDZ protein; concentration not given, unit not given; baseline: biotin control resin, higher = stronger binding): 0.0743
11-deoxycorticosterone  rate constant k-2 (CYP11B2 (human); substrate binding, stopped-flow global kinetic fitting; purified enzyme; 3-state induced fit model, with: equimolar adrenodoxin): 0.981 ± 0.0754 s⁻¹
GSGAGSETSV  binding intensity (human MAGI1-2/6 PDZ construct (MBP fusion); automated holdup; peptide, purified PDZ protein; concentration not given, unit not given; baseline: biotin control resin, higher = stronger binding): 0.0979
ALLQWVDLV  reporter activation (Jurkat T cells expressing 1G4 TCR; NFAT-eGFP reporter, fluorescence microscopy; peptide; concentration not given, HLA-A*02:01 NY-ESO system): 0.0068%
human immunoglobulin gamma-1 constant  co-IP enrichment (co-immunoprecipitation; human plasma; no crosslinker, unit not given, with: Band 3 peptide 1-56 bait; baseline: negative control): 1.24e+06
cotadutide  plasma triglycerides (ob/ob mouse, AMLN diet NASH model; dose not given, terminal): 138 ± 26 mg/dL
QDEKVKESYV  binding intensity (human MAGI1-2/6 PDZ construct (MBP fusion); automated holdup; peptide, crude extract; concentration not given, uncorrected, unit not given; baseline: biotin control resin, higher = stronger binding): 0.365
human clusterin  co-IP enrichment (co-immunoprecipitation; human RBC membrane; DMTMM crosslinker, unit not given, with: Band 3 peptide 1-56 bait; baseline: negative control): 0
NRVDSKETEC  normalised SPR binding response (human MAGI1-2/6 PDZ construct (MBP fusion); surface plasmon resonance; peptide; concentration not given; higher = stronger binding): 0 normalised RU
colistin  MIC (Escherichia coli; broth microdilution; clinical isolate RKI-No_330/16): 8 mg/L
